Published values collected from several papers.
A part holds a random share of what one study measured. Values joined by “and” are separate records of one study, mostly repeats; a detail may differ.

Series 1
Target: Interferon regulatory factor 3, full length, phosphomimetic (IRF3, Homo sapiens, UniProt Q14653, residues 1-427, S386D/S396D/S398D/S402D/T404D/S405D)
Method: protein-binding microarray
Molecule type: double-stranded DNA, one strand shown
Medium: in vitro
Tested at: 2540 nM top
Setting: 60-bp whole probe
Together with: salmon DNA 0.4 mg/ml
Reference: random background probes
Reading: higher = stronger binding
Endpoint: fitted relative affinity
All sequences stand within: GCCTAGCAC … GTCTTGATTCGCTTGACGCTGCTG
Construct (chain): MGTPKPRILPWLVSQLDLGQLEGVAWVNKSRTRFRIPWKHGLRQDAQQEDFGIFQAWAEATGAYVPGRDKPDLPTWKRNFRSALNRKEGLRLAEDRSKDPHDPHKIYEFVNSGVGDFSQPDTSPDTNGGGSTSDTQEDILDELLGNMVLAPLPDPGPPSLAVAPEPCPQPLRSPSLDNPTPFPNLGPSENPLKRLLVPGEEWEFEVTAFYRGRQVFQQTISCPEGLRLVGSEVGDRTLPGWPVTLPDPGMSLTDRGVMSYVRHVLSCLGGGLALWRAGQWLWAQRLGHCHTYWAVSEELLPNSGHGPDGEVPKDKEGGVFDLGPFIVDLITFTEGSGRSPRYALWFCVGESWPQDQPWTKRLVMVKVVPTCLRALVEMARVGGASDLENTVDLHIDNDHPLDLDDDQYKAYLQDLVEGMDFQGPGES
Oligonucleotide = GTAGAACTGGGGACTGGATTAGTGCTA; result = -0.725 z-score
Oligonucleotide = CATTTATTTACTCTCTACATGTGCTAG; result = 2.74 z-score
Oligonucleotide = TCACTGCTCCTTCTGACACTGTGCTAG; result = 0.596 z-score
Oligonucleotide = TAGGTTTTCTGGTTCCCATTGTGCTAG; result = 1.26 z-score
Oligonucleotide = CTGGCTTTGACTCTTTCTGTGTGCTAG; result = -0.583 z-score
Oligonucleotide = TTAGATTTCGGGTATCGATTGGTGCTA; result = 1.24 z-score
Oligonucleotide = GACGGTCTCGGTCTCGGAACGTGCTAG; result = 1.57 z-score
Oligonucleotide = GACGCTCTCGGTTTCGGGACGTGCTAG; result = 2.89 z-score

Series 2
Organism: SARS-CoV-2
Observed: cytopathic effect
Cell line: Vero E6
Tested at: 10 µM
Endpoint: inhibition
Structure (SMILES) = O=C1c2c(O)cccc2Cc2cccc(O)c21; result = -6%
Structure (SMILES) = COC(=O)C1=C(C)NC(C)=C(C(=O)OC)C1c1ccccc1[N+](=O)[O-]; result = -3.2% and -10.2%
Structure (SMILES) = NC(=S)N/N=C/c1coc2ccccc2c1=O; result = 2.3%

Series 3
Target: Sal-like protein 4, full length isoform A (SALL4, Homo sapiens, UniProt Q9UJQ4, residues 1-1053)
Sequence of UniProt Q9UJQ4 (whole entry, looked up): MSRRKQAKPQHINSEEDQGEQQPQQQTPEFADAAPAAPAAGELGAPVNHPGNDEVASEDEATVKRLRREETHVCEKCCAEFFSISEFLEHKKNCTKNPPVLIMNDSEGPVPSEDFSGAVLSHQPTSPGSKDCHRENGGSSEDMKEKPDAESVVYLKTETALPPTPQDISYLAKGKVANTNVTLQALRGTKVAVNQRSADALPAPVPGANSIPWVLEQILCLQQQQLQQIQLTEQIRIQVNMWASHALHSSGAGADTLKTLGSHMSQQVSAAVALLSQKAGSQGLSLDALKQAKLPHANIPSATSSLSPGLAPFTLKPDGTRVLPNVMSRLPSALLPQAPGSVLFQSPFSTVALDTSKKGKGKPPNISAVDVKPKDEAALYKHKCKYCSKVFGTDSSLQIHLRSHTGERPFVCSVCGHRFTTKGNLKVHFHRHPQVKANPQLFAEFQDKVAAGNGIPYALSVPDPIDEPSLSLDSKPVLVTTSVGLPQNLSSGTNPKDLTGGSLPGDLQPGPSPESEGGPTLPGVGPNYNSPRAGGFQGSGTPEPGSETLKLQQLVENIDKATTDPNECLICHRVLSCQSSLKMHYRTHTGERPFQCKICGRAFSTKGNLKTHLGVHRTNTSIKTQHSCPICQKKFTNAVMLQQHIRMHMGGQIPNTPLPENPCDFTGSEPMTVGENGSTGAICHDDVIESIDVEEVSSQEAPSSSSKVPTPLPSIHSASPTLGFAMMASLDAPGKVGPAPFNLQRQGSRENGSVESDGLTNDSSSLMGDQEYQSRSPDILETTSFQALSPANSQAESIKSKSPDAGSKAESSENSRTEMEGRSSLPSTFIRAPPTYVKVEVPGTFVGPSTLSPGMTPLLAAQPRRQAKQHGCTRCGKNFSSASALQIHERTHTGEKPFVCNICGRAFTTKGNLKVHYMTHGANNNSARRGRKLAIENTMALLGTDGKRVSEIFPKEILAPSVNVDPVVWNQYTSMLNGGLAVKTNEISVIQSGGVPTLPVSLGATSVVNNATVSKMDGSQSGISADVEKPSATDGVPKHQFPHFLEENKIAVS
Method: universal PBM
Molecule type: double-stranded DNA, one strand shown
Medium: in vitro
Tested at: 600 nM
Setting: 8-mer, flanks averaged, mean of replicates
Reading: higher = stronger binding
Endpoint: E-score
Oligonucleotide = AACTCGTC; result = 0.0112
Oligonucleotide = ATTAACCC; result = 0.102
Oligonucleotide = ACCCTTGA; result = -0.128
Oligonucleotide = ACCTAGGC; result = -0.231
Oligonucleotide = CTGCGCTC; result = -0.319
Oligonucleotide = GCGGTCCC; result = -0.355
Oligonucleotide = CAGCGTAA; result = 0.0893
Oligonucleotide = AAGCTCAC; result = -0.196

Series 4
Target: Replicase polyprotein 1ab, polymerase (rep, Severe acute respiratory syndrome coronavirus 2, UniProt P0DTD1)
Observed: enzyme activity
Action: inhibitor
Tested at: 20 µM
Endpoint: inhibition
Compound = CCCCCCCCCCCCCC(=O)OC(C)C; result = 1.25%
Compound = O=C1CN2Cc3c(ccc(Cl)c3Cl)N=C2N1; result = 1.58%
Compound = O=C(NC1CCOCC1)c1ccc(-c2cc(-c3c[nH]nc3-c3ccccn3)ccn2)cc1; result = -7.99%
Compound = NS(=O)(=O)c1ccc(NC(=O)Nc2ccc(F)cc2)cc1; result = -7.34%
Compound = Cc1ccsc1C(=CCCN1CCC[C@@H](C(=O)O)C1)c1sccc1C; result = -1.88%
Compound = C1CCC(N=C(NC23CC4CC(CC(C4)C2)C3)N2CCOCC2)CC1; result = -12.9%
Compound = CC(C)CCNC(=O)[C@H](CC(C)C)NC(=O)[C@H]1O[C@@H]1C(=O)O; result = -4.84%
Compound = NC(=O)c1cccc(-c2cccc(OC(=O)NC3CCCCC3)c2)c1; result = 0.13%
Compound = c1ccc(Oc2cccnc2)cc1; result = 0.02%
Compound = CCCC(=O)Nc1cccc(NC(=O)c2ccccc2Br)c1; result = -2.31%
Compound = COc1ccccc1OC(=O)CNC(=O)Cc1ccc(C(=O)c2ccc(C)cc2)n1C; result = -11.9%
Compound = COc1ccc(OC)c([C@@H](O)[C@H](C)N)c1; result = 32%
Compound = Cc1[nH]c2ccccc2c1CCNC(=O)c1cccs1; result = 1.66%
Compound = CN(C)CCCN1c2ccccc2Sc2ccc(Cl)cc21; result = 17.6%
Compound = CC(=O)O[C@]1(C(C)=O)CC[C@H]2[C@@H]3C[C@H](C)C4=CC(=O)CC[C@]4(C)[C@H]3CC[C@@]21C; result = 18.2%
Compound = CN1CCN(c2cccc3[nH]c(=O)oc23)CC1; result = -1.29%
Compound = COc1ccc(C2=N[C@@H](c3ccc(Cl)cc3)[C@@H](c3ccc(Cl)cc3)N2C(=O)N2CCNC(=O)C2)c(OC(C)C)c1; result = 1.27%
Compound = C[C@H](NC(=O)[C@@H](O)c1cc(F)cc(F)c1)C(=O)N[C@@H]1C(=O)N(C)c2ccccc2-c2ccccc21; result = -1.39%
Compound = COc1ccc(NS(=O)(=O)c2sc3ccc(Cl)cc3c2C)cc1N1CCNCC1; result = 12.6%
Compound = O=C(O)CCCCCCCCCCCCCCc1ccc(I)cc1; result = -3.52%
Compound = CCN(CC)CCCN(c1ccccc1)C1Cc2ccccc2C1; result = -1.78%
Compound = COC(=O)CN1CN(c2ccccc2)C2(CCN(Cc3cccc4ccccc34)CC2)C1=O; result = -5.7%
Compound = CC(=O)[C@H]1CC[C@H]2[C@@H]3CC=C4C[C@@H](O)CC[C@]4(C)[C@H]3CC[C@]12C; result = -1.86%
Compound = CNc1nc(C)nc(N[C@H]2CCC[C@@H](C(=O)NCc3ccc(C#N)cc3C(F)(F)F)C2)n1; result = -3.64%
Compound = CC1(C)[C@H]2CC[C@]1(C)[C@@H](O)[C@H]2O; result = 3.94%

Series 5
Target: Histone acetyltransferase KAT6A, winged helix 2, GST fusion (KAT6A, Homo sapiens, UniProt Q92794, residues 85-181)
Method: protein binding microarray
Molecule type: double-stranded DNA, one strand shown
Medium: in vitro
Tested at: not given
Setting: 8-mer, flanks averaged, mean of 2 arrays, mostly near background
Reference: not given
Reading: higher = stronger binding
Endpoint: E-score
Target sequence (chain): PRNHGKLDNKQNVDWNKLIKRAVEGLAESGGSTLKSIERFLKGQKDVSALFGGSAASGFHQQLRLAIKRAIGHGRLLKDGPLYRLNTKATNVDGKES
Oligonucleotide = AGCGGACG; result = 0.165
Oligonucleotide = CCGCGATC; result = 0.106
Oligonucleotide = GCGCGCAC; result = 0.176
Oligonucleotide = ACTCCGCT; result = 0.00073
Oligonucleotide = CAGGACAA; result = 0.0933
Oligonucleotide = GGTCCGTA; result = 0.078
Oligonucleotide = CCTGCCCA; result = 0.092
Oligonucleotide = AGGTTCAC; result = 0.1

A few entries again (series 4):
Compound = C[C@H](NC(=O)[C@@H](O)c1cc(F)cc(F)c1)C(=O)N[C@@H]1C(=O)N(C)c2ccccc2-c2ccccc21; result = -1.39%
Compound = COc1ccc(NS(=O)(=O)c2sc3ccc(Cl)cc3c2C)cc1N1CCNCC1; result = 12.6%
Compound = O=C(O)CCCCCCCCCCCCCCc1ccc(I)cc1; result = -3.52%
Compound = CCN(CC)CCCN(c1ccccc1)C1Cc2ccccc2C1; result = -1.78%
Compound = COC(=O)CN1CN(c2ccccc2)C2(CCN(Cc3cccc4ccccc34)CC2)C1=O; result = -5.7%
